Assay results from different studies.
A part holds a random share of what one study measured.
UniProt Q99720, sequence (whole entry, looked up): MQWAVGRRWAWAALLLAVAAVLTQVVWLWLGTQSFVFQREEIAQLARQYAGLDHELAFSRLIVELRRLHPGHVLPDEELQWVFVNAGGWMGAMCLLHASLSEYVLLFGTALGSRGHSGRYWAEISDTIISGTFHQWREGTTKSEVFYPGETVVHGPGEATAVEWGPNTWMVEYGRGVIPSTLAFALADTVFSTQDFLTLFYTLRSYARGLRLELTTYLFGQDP
UniProt P34969, sequence (whole entry, looked up): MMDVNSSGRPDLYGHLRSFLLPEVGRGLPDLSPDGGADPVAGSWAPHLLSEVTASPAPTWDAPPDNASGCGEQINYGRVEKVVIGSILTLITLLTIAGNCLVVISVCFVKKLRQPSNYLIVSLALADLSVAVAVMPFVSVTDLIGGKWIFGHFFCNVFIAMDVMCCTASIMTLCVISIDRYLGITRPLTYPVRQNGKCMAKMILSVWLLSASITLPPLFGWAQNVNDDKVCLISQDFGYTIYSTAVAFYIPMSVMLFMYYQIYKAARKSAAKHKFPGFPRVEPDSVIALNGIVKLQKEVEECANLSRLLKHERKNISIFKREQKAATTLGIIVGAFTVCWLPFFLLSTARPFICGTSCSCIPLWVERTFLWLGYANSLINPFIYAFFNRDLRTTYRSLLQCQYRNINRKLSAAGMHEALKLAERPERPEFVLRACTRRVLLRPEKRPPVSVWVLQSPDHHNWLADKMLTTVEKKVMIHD
UniProt P21673, sequence (whole entry, looked up): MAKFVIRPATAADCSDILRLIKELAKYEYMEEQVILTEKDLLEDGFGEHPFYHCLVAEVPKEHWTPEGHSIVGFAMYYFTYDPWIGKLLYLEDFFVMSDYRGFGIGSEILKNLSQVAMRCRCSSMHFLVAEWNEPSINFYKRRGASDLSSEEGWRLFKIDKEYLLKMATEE

Sample 1 — read-out: enzyme activity; mode: inhibitor; tested at: 0.5 µM; relative to: control
Target: Serine/threonine-protein kinase MARK1 (MARK1, Homo sapiens, UniProt Q9P0L2)
UniProt Q9P0L2, sequence (whole entry, looked up): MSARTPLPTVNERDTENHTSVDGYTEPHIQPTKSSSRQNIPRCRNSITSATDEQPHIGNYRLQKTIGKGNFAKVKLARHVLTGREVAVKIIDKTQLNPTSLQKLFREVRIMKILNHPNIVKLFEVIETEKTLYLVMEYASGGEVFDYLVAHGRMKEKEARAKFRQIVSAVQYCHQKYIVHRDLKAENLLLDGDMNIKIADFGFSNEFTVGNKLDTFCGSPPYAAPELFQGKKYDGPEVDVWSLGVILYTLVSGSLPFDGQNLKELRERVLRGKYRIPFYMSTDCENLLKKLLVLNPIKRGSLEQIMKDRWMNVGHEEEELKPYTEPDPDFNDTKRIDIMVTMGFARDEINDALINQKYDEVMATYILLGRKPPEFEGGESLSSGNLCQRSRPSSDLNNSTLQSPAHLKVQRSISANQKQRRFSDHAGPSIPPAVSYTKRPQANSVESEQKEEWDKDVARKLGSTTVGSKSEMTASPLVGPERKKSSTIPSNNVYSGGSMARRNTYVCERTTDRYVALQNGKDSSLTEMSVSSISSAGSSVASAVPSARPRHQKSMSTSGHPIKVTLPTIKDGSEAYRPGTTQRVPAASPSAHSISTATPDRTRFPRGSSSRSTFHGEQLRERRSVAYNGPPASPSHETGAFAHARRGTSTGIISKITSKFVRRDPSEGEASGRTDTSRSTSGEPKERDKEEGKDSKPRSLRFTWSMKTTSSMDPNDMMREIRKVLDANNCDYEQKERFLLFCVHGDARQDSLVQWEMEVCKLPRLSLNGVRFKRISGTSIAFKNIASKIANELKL
Compound | remaining activity
CN(C)S(=O)(=O)c1ccc2c(c1)/C(=C/c1cc3c([nH]1)CCCC3)C(=O)N2 | 54.6%
O=C1NC(=O)c2c1c1c3ccccc3[nH]c1c1[nH]c3cc(Br)ccc3c21 | 42%
O=Nc1c(-c2c(O)[nH]c3cc(Br)ccc23)[nH]c2ccccc12 | 64.2%
CCCCc1c(-c2ccc(OC)cc2)[nH]c2nccnc12 | 92.9%
O=C1Nc2ccc(Br)cc2/C1=C/c1cc2c([nH]1)CCCC2 | 69%
CCCNC(=O)Nc1ccc(Oc2ncnc3cc(OC)c(OC)cc23)cc1Cl | 97.6%
N#Cc1cnc2cnc(NCc3cccnc3)cc2c1Nc1ccc(F)c(Cl)c1 | 91.6%
COc1ccc2c(c1)c(C1=C(c3c[nH]c4ccccc34)C(=O)NC1=O)cn2CCCN(C)C | 93.2%
O=C1Cc2c([nH]c3ccc(Br)cc23)-c2ccccc2N1 | 88.3%

Sample 2 — cell line: mouse MPNST tumor cells; technique: high-content immunofluorescence imaging; measured: nuclear SOX9; tested at: 10 µM; time: 12 h; setting: mean of 2 replicates; relative to: DMSO control; reading: higher = more nuclear SOX9
Structure (SMILES) | nuclear SOX9 intensity
CC(C)S(=O)(=O)N[C@H]1Cc2ccc(-c3ccc(F)nc3)cc2C1 | 98.7 % of DMSO
CC(C)N(CCCCOCC(=O)NS(C)(=O)=O)c1cnc(-c2ccccc2)c(-c2ccccc2)n1 | 88.8 % of DMSO
O=C(CCBr)N1CCN(C(=O)CCBr)CC1 | 102 % of DMSO
O=C(O)c1ccc2c(c1)C(=O)N(c1cccc(Oc3ccc([N+](=O)[O-])cc3)c1)C2=O | 92.1 % of DMSO
NC[C@H]1O[C@H](O[C@H]2[C@H](O)[C@@H](O[C@H]3O[C@H](CO)[C@@H](O)[C@H](N)[C@H]3O)[C@H](N)C[C@@H]2N)[C@H](N)C[C@@H]1O | 107 % of DMSO

Single results of other studies
SMILES | target or system | test | conditions | scale | measurement | result
CC(C)(C)OC(=O)N1CCCC1CNC1CCC(c2cc(F)ccc2F)(S(=O)(=O)c2ccc(Cl)cc2)CC1 (stereo not drawn) | Sigma non-opioid intracellular receptor 1 (SIGMAR1, Homo sapiens, UniProt Q99720) | cell-free assay | 10 µM |  | inhibition | 91.6%
CC(=O)OC/C=C(\C)CCC=C(C)C | Diamine acetyltransferase 1 (Homo sapiens, UniProt P21673) | inhibitor | 10 µM | relative to: control | remaining activity | 91.1%
CC(C)(C)c1cnc(CSc2cnc(NC(=O)C3CCN(CCCCSc4cccc5c4C(=O)N(C4CCC(=O)NC4=O)C5=O)CC3)s2)o1 (stereo not drawn) | HH | CCK-8 | 150 nM |  | viability | 22.9%
NS(=O)(=O)c1cc(NC(=O)C2(c3ccccc3Cl)CC2)ccc1Oc1cccc(Cl)c1 | 5-hydroxytryptamine receptor 7 (HTR7, Homo sapiens, UniProt P34969) | cell-free assay | 10 µM |  | inhibition | 17.3%

Some of these lines once more (single results of other studies):
SMILES | target or system | test | conditions | scale | measurement | result
NS(=O)(=O)c1cc(NC(=O)C2(c3ccccc3Cl)CC2)ccc1Oc1cccc(Cl)c1 | 5-hydroxytryptamine receptor 7 (HTR7, Homo sapiens, UniProt P34969) | cell-free assay | 10 µM |  | inhibition | 17.3%
